Experimental data gathered from unrelated publications.
Numbered parts are unrelated; each lists some results of a single study. Substitutions count along the parent as printed.

Study 1
Target: CCND2, cyclin fold, Cln2 fusion (human)
Method: yeast growth competition, sequencing
Sample: yeast
Notes: weak parent motif
Reference: not given
Direction: higher = stronger binding
Parent: BRCA2 docking peptide (human); PSIKRNLLNEFDR; partner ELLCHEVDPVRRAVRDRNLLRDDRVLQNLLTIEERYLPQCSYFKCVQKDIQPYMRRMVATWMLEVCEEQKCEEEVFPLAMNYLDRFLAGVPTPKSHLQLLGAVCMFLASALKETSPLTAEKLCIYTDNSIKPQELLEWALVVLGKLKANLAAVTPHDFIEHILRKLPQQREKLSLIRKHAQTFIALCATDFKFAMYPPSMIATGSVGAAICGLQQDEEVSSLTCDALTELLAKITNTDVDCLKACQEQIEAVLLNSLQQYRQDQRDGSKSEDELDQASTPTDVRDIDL
Under “normalised enrichment score”, `PSIKRNGLNEFDR [L7G]` is recorded as 0.0986.
For `PRIKRNLLNEFDR [S2R]`, “normalised enrichment score” read -0.102.
For `PSIYRNLLNEFDR [K4Y]`, “normalised enrichment score” read 0.0419.
For `PSIKRVLLNEFDR [N6V]`, “normalised enrichment score” read 0.0627.
Under “normalised enrichment score”, `PSIKRNLLNEFWR [D12W]` is recorded as 0.95.
For `PSIKRILLNEFDR [N6I]`, “normalised enrichment score” read -0.0419.
Under “normalised enrichment score”, `PSIKRNDLNEFDR [L7D]` is recorded as -0.0668.

Study 2
Target: ABI1, truncated, D143A, DHFR fusion (Arabidopsis thaliana)
Method: DHFR PCA, deep sequencing
Sample: yeast
Notes: methotrexate growth selection, single substitutions
Added: (+)-ABA 710 µM
Reference: wild-type fitted maximum
Direction: higher = stronger binding
Parent: PYL1, truncated, DHFR fusion (Arabidopsis thaliana); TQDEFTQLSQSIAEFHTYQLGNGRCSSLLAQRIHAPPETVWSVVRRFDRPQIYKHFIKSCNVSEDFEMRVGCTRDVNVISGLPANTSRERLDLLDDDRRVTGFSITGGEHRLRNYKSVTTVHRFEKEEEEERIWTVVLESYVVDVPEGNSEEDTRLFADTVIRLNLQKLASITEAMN; partner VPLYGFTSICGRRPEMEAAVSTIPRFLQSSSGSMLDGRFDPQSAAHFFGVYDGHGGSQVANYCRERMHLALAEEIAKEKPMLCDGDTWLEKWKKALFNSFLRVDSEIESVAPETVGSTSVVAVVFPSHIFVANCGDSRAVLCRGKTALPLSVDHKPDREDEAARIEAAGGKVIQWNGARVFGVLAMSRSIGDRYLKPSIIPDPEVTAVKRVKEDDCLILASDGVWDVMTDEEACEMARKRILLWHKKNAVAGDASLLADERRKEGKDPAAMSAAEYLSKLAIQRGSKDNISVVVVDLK
Under “relative binding score”, `P146D` is recorded as 46.6%.
Under “relative binding score”, `R88W` is recorded as 92.4%.
Under “relative binding score”, `L82G` is recorded as 70.4%.
Under “relative binding score”, `E139D` is recorded as 55.3%.
`R113Y`: “relative binding score” 98.6%.
Under “relative binding score”, `K58D` is recorded as 99.4%.
`T17S` — result for “relative binding score”: 104%.
Under “relative binding score”, `E109A` is recorded as 97.9%.

Study 3
Target: CREBL2, bZIP domain (human)
Method: DHFR protein complementation
Sample: yeast
Notes: single substitutions, most at no-binding floor
Reference: wild-type JUN-FOS pair
Direction: higher = stronger binding
Parent: JUN, bZIP domain (human); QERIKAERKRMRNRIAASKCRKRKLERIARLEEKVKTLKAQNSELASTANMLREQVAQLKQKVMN; partner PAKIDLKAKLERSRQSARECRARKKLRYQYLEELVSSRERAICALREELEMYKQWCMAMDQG
For `K36I`, the binding fitness was -1.54 natural log.
`S43P` has a binding fitness of -1.55 natural log.
The binding fitness of `A29P` is reported as -1.52 natural log.
`A49V` has a binding fitness of -1.34 natural log.
The binding fitness of `Q41M` is reported as -1.54 natural log.
`N42F` has a binding fitness of -1.5 natural log.

Further values, each from its own experiment
`PhoQ, residues 284 288 289 292 302 303 SLGVVW` has a fold induction of 0.66 (PhoP, residues 12 14 15 18 19 NIMAP (Escherichia coli, UniProt P23836); Sort-seq, measured: YFP reporter; E. coli; PhoQ-PhoP variant library, added: 10 µM Mg2+; reference: high Mg2+ state, higher = stronger signaling).

Excerpt of the above (study 2):
Under “relative binding score”, `E139D` is recorded as 55.3%.
`R113Y`: “relative binding score” 98.6%.
